Measured values from different studies.
Every numbered part comes from another study and shows a few of its results, in no order.

Block 1
Target: Histone acetyltransferase KAT6A, winged helix 1, GST fusion (KAT6A, Homo sapiens, UniProt Q92794, residues 1-85)
Technique: protein binding microarray
Molecule type: double-stranded DNA, one strand shown
Medium: in vitro
Concentration: not given
Setting: 8-mer, flanks averaged, mean of 2 arrays, mostly near background
Baseline: not given
Reading: higher = stronger binding
Construct (chain): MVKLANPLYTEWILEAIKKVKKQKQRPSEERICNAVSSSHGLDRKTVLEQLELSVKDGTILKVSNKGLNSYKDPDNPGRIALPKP
| Oligonucleotide | E-score |
| --- | --- |
| CATAAATA | -0.149 |
| GTCCTAGA | -0.0169 |
| AATGGCTC | -0.176 |
| GAATCTGA | -0.175 |
| ACCAGGCT | -0.135 |
| TGTAGTAA | -0.0487 |
| ATCCTTTG | -0.148 |
| AGATTGTA | -0.211 |
| ACGTTCGG | 0.0663 |
| AAATGCCA | -0.177 |
| CCCCCGGG | 0.345 |
| GTCCCCTA | -0.0944 |
| AGGCTTGC | -0.08 |
| CCCCTGCC | 0.0221 |
| CGGCACTA | 0.276 |
| ACCTAGTC | -0.0756 |
| CCTAAGCA | -0.222 |

Block 2
Target: Sal-like protein 4, full length isoform B (SALL4, Homo sapiens, UniProt Q9UJQ4-2, residues 1-616)
Technique: universal PBM
Molecule type: double-stranded DNA, one strand shown
Medium: in vitro
Concentration: not given
Setting: 8-mer, flanks averaged, mean of replicates
Reading: higher = stronger binding
Construct (chain): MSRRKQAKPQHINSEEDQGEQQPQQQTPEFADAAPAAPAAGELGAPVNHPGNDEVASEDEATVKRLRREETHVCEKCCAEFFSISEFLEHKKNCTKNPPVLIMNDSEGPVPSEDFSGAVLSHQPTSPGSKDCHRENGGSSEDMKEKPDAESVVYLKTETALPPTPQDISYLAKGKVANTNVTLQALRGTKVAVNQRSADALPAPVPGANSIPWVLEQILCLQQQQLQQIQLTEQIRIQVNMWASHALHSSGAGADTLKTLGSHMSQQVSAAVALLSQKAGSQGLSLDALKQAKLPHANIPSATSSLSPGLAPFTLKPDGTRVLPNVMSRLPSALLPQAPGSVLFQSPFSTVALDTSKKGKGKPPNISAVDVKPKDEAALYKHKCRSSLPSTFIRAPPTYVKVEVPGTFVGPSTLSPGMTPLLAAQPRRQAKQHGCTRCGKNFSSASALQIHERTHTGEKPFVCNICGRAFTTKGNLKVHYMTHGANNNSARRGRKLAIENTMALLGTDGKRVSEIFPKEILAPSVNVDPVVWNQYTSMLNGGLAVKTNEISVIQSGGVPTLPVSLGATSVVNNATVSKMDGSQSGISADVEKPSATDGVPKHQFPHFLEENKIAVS
| Oligonucleotide | E-score |
| --- | --- |
| ACGGACTC | -0.117 |
| CGGTCAAC | -0.239 |
| CAGACCTA | -0.0348 |
| GTTGGAGA | -0.00557 |
| AGAGTGAG | -0.0026 |
| AAGTTTCA | 0.215 |
| GAAAATCC | 0.0712 |
| AAAACTCA | 0.151 |
| CTTGGTTA | 0.0885 |
| AGGGGTAG | -0.139 |
| CACCGATA | -0.00417 |
| AGACAGAA | 0.0328 |
| CGTAGCAA | 0.0265 |
| ACTCCGCA | -0.236 |
| ATTACTCC | 0.074 |
| CCCCCGTA | -0.189 |
| CTCTCCCC | -0.257 |
| AAGGGACT | -0.0724 |
| ACGCCCTG | -0.194 |
| CGAATAAG | 0.0357 |
| GTTGTGGA | -0.0551 |
| GCAGGCGC | -0.307 |

Block 3
Target: RING finger protein unkempt homolog, zinc fingers 1-6, GST-SBP tag (UNK, Homo sapiens, UniProt Q9C0B0, residues 30-357)
Technique: RNA Bind-n-Seq
Molecule type: RNA
Medium: in vitro
Concentration: not given
Setting: RNA with constant flanks, human and mouse sites, ends assumed
Baseline: input RNA pool
Reading: higher = stronger binding
Target sequence (chain): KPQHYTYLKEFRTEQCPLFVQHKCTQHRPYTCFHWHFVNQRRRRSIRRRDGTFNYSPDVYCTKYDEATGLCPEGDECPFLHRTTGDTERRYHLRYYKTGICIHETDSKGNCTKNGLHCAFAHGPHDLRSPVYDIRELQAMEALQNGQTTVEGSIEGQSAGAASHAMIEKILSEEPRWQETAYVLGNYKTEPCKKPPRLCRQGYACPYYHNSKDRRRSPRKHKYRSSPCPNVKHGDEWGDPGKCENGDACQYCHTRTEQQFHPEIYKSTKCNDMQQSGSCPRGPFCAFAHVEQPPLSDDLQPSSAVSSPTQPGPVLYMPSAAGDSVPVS
| Oligonucleotide | bound/input enrichment [ratio] |
| --- | --- |
| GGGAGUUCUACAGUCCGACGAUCCCGUAGGGGCACAGAGAGCUUAGAUCACCUUGCUGGUCUCUCACAUUAUUACCAUGCUGAUACUAGCUAUAGACACUUCCCCAAGUCUGAAAAGUAUAGCAUCAGUAGACUCACCCUGGACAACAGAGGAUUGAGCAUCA | 0.416 |
| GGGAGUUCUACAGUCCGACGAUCAUAAGUAAUUCUCCCCACUUGAUUUUUCUUCUAUAAAAUCCCAUAGAACAAUGUUUAUGCUAUAGCCAUUUAAUAUAUGUACAAAUUGUAAAGAAUAUGUAUAAAUGUUUUACACGAAUGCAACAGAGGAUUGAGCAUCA | 3.67 |
| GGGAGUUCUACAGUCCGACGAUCUGAUGAAGAGCUGAAGAAAAAAGGCCUCAUAUCCAGUGAUGGAUUCUGCAGAUAUCUGAUGUCAGAUGAAAAUGCCCCUGUCUUCUUAGAUCGCUUAGAACUUUACCAGGAGAUGGACCACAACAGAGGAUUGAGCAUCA | 0.196 |
| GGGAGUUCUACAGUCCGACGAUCGCUUCCCCGUCCACCUCUUCAGCUCACACCCCUUCUCAGAUAGCCUCUCCUCUUCAGGAAGACACUCUCUCUGAUGUUGUUCCUCCCAGAGAGAUGUCCUUAUAUGCCUCACUUGCGUCUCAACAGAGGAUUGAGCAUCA | 0.338 |
| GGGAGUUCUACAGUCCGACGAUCUUUAUUUUGCACAUUAUGCAAAAGGAAGAAUAUUAGAAACACUUUUUUUUAAGUGAGUGAAAGUAUGGUAAGACGGUUAGUGCUUUGUGCACUUCUUAGACUAAUCAAGGUCAUCCAUCGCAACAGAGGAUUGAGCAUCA | 1.07 |
| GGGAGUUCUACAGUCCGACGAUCUACAUGACGAUCAGCGAUGAGUGGGACAUUCCAGAGAAGCAGCCUUUCAAAGACCUGGGCAAUUUGCGUUACUGGCUGGAAGAGGCAGAGUGUAGAGAUCAGUACAGUGUGAUUUUUGAGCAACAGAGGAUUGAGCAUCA | 0.264 |
| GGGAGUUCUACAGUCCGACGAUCUAUGAACUGUUAAAACGGAAUGCAAGGUUUUCAAAAGCCCAGGUCUAACUGUGAUGAUUGGUUUAUUGGUCUACAAUCCCAGCCUGGCAUUUUCCGUGUAAAUCAUAAACAAUAAACAGGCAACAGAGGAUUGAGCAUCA | 0.268 |
| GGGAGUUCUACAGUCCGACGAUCUAUGUUUACGGAGUCCUGUUUAGUUUGGCAGAAAGCAGAAAGAAAACUGAGAGACUUGCUUUUAGAAAGAACAGACUUCCACCAGAAUUCUCGCCACUGAUCAUUAAGGAGUGGGCAGCUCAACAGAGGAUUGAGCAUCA | 0.2 |
| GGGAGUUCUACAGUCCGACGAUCUGUUGAUGACUUCUUGUGGCAUUUCACACACUGUAGAUGGUCACUCCCUUCAUGUCCAUGUUAGCUCAUGGUGUAAGAUGAUGUCUUGUCAGUAUUACUGUUUUGCUAAGCCGCUUCAUUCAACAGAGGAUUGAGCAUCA | 0.0832 |
| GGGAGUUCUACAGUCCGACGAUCAGGGCGCAGUUAUGGGUCGCAAGAAGAAGAAGCAGCUCAAGCCGUGGUGCUGGUAUUGUAACAGAGAUUUUGAUGAUGAGAAGAUCCUUAUACAGCACCAAAAAGCAAAGCAUUUUAAAUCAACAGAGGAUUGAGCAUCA | 0.289 |
| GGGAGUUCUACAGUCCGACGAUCAUUUUCCAGUUUUAACAAAUUUAAGAACCCCAAACUAACAGGCUUAGUGAUGUAAUUGUGUUUAGUAGAGGUACACUUGUGAAUAAGGAGGGUGGGUGGGGUAGAUGUUGCUAACUGCAACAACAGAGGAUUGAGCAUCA | 4.13 |

Block 4
Target: RNA binding protein fox-1 homolog 2, RRM domain, GST-SBP tag (RBFOX2, Homo sapiens, UniProt O43251-10, residues 100-194)
Technique: RNA Bind-n-Seq
Molecule type: RNA
Medium: in vitro
Concentration: 365 nM
Setting: natural RNA segment, single round, ends assumed
Baseline: no-protein control
Reading: higher = stronger binding
Residues (chain): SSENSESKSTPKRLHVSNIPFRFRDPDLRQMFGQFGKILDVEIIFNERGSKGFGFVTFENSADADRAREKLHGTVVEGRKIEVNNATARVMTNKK
| Oligonucleotide | RBNS enrichment (R) |
| --- | --- |
| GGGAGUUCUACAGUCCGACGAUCGCUGCUGUUGGGCUUUCGUUUCUGCAAUUCAGCUUUGUUUAAAGUGAUUUGAAAAAUACUCAUUCUGAACAUAUCCAUGCGCAAUCAUGAUAACUGUUGUGAGUAGUGCUUGGAAUUCUCGGGUGCCAA | 0.268 |
| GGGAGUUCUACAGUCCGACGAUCAAGGCCUGUUCCCUGGAAGCCCAAAGGACUCUGCAUUGAGGGUGGGGGUAAUUGUCUCUUGGUGGGCCCAGUUAGUGGGCCUUCCUGAGUGUGUGUAUGCGGUCUGUAACUGGAAUUCUCGGGUGCCAA | 1.65 |
| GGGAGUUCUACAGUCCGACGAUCCAGGCUGCUCCAGGGGCCUCCUGCGCCCUCACCUGCCACAGAGCAACCCAGGUUAAAUACAGCCCAUGCACAAAGCCACAGGCCAAAGCCUAUGGAAUUGUUUUUAAUCAUGGAAUUCUCGGGUGCCAA | 0.299 |
| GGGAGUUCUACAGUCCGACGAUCGUGCCUUGAUUGAUUAGAUAAAGAUUUCUAGUAGGCAGCAAAAGACCAAAUCUCAGUUGUUUGCUUCUUGCCAUCACUGGUCCAGGUCUUCAGUUUCCGAAUCUCUUUCCUGGAAUUCUCGGGUGCCAA | 0.226 |
| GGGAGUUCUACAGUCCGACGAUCAUUUACUCCAGCAUCUAUUGUAUUUUAAAUUUCUACUCCAGUCCAAUGUAACUAUUUAGCCCUGGAUUAUACAUACUGUCCAAUUUUCAUUAAAUUUUUGUCUUAUAACUUGGAAUUCUCGGGUGCCAA | 0.857 |
| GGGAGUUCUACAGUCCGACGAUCUUCUCUUAAGAGAGGCUGUGGGUAUGCUGGAGCUGGCCUUCCGGUCAGGCUCUGGGCAGCAGGUGUCAGGCUGCUCCUAUCAGUGAGUGGGGCCACUGCUGAUAUUUGGCUGGAAUUCUCGGGUGCCAA | 0.425 |
| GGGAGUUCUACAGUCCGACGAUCUCGGCCUUUGAUCUGGCCAAGUCUUAGAGAAUGUUGUAGAUGGGGGUUAAGAGAACCAUUUAAAGUAUUUUGUUCAUUAAAUGCCUCUUUCCAAAAAUGGAAGAUCCAAAUGGAAUUCUCGGGUGCCAA | 0.748 |
| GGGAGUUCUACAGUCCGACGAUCGAACCUUAGCUGAAUAUAGUGUGUGUCUCAAGAGGAAGUCAGGGUACUAGCUCAGUGCUCAAUCUCCAGGUACUAUAUAUACAUUUGCCCGUUUUAUCUCUAAUGUGAAAUGGAAUUCUCGGGUGCCAA | 0.24 |
| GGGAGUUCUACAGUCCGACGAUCCACUGCGGUUGUCCACGGUCACAUCUGCCCCAGUGCCUUUGUCCUUCCCUUGGGGCUUGCCGGCCAGACUUCUCUCCCCUGCGGCUCCCACCUCUGCCUGACCCCAGCCUUGGAAUUCUCGGGUGCCAA | 0.616 |
| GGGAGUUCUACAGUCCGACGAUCCUGUGCCCCAGCGGUCACUCACAACAUAGGUCUGUUGAGUCUUUUUUAAAUGCACUAGGAGCCAACUCUGUCCAUCUGUGAUGGGAUUAGAAAGCCCGGUGUUUUUCUGUUGGAAUUCUCGGGUGCCAA | 0.297 |
| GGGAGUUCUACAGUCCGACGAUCACAAUGUUUCUUCUGCAACUGGCUACUCCUCUUAUAUUAAUGCAUACACUUUUGUAAAGAAGUAUAUUUUUAUGAAAAGAAACUUUGUAAAAGUAUGAUGUAAAUUUUCAUGGAAUUCUCGGGUGCCAA | 0.555 |
| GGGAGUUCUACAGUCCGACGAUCGAAUGUAAAAACAUUCAGUUGAGACCAUAUGCAUUUUCUGUGCUGUUUGUACUUGAGGUAUGUAACAUUUGUAUACCUGAACUUAUUUUAAAGAUGAACUGAAAUGCACAUGGAAUUCUCGGGUGCCAA | 0.302 |

Excerpt of the above (block 1):
| Oligonucleotide | E-score |
| --- | --- |
| ATCCTTTG | -0.148 |
| AGATTGTA | -0.211 |
| ACGTTCGG | 0.0663 |
| AAATGCCA | -0.177 |
| CCCCCGGG | 0.345 |
| GTCCCCTA | -0.0944 |
| AGGCTTGC | -0.08 |
